Measured values of several laboratories.
Every numbered part comes from another study and shows a few of its results, in no order. Changes are numbered by the printed parent chain.

Block 1
Target: Interferon regulatory factor 3, full length, phosphomimetic (IRF3, Homo sapiens, UniProt Q14653, residues 1-427, S386D/S396D/S398D/S402D/T404D/S405D)
UniProt Q14653, sequence (whole entry, unmodified, looked up): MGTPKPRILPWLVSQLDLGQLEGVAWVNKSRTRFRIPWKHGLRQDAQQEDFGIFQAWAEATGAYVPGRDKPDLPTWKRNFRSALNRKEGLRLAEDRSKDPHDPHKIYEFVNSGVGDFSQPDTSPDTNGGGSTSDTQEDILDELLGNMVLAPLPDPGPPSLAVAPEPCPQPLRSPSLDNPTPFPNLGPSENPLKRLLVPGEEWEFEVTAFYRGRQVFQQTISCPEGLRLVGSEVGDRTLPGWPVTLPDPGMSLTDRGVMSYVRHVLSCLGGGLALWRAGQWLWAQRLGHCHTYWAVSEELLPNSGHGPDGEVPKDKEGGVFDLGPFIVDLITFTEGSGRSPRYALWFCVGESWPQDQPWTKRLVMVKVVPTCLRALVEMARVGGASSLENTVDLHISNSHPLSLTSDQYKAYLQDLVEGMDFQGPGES
Technique: protein-binding microarray
Molecule type: double-stranded DNA, one strand shown
Medium: in vitro
Tested at: 2540 nM top
Setting: 60-bp whole probe
Together with: salmon DNA 0.4 mg/ml
Reference: random background probes
Reading: higher = stronger binding
Quantity: fitted relative affinity
All sequences stand within: GCCTAGCAC … GTCTTGATTCGCTTGACGCTGCTG
Strand = GACGGACTGGGTCTCGGCACGTGCTAG; value = -0.846 z-score
Strand = GCAGTTGTCGTTCAAGGCTGGTGCTAG; value = 0.762 z-score
Strand = GACGGTATCGGACTGGGCACGTGCTAG; value = 1.49 z-score
Strand = GACGATCTCACACTGGAGACGTGCTAG; value = 0.382 z-score
Strand = TCATTTTTGTTGTTTTTACTGTGCTAG; value = 1.56 z-score
Strand = GATGGTTTCGACACTGGGGACGTGCTA; value = 2.63 z-score
Strand = TCATAGTTTCTTTTCTTACTGTGCTAG; value = 5.81 z-score
Strand = TTAGGTCTCCTACTGCTCTAGTGCTAG; value = 0.687 z-score
Strand = TCAGTCTTCCCTTTTAAACTGTGCTAG; value = 3.31 z-score
Strand = TGCTGGTTTTGTGGTCTAATGTGCTAG; value = -0.454 z-score
Strand = CTTTTATTTTTTTTATTTATGTGCTAG; value = 4.37 z-score
Strand = GACGATCTCAGTTTCGAGACGTGCTAG; value = 2.84 z-score
Strand = TTAGGACTGCATCTCCTTTAGTGCTAG; value = -0.175 z-score
Strand = TTAGGTATCGACTACCGGTTAGTGCTA; value = 0.353 z-score
Strand = TTAGATTTCGGGTTTCAATTAGTGCTA; value = 2.58 z-score
Strand = TTAGGATCCGGTTTCGGTTAGTGCTAG; value = 6.27 z-score
Strand = AAAGATATAAATGTAACATGGTGCTAG; value = -0.236 z-score
Strand = TTAGATCTCAGTATCGTTTAGTGCTAG; value = 1.31 z-score
Strand = GACGCTTTCAGTTCCGAGACGTGCTAG; value = 3.23 z-score

Block 2
Target: Ras GTPase-activating protein-binding protein 1, full length (G3BP1, Homo sapiens, UniProt Q13283)
UniProt Q13283, sequence (whole entry, looked up): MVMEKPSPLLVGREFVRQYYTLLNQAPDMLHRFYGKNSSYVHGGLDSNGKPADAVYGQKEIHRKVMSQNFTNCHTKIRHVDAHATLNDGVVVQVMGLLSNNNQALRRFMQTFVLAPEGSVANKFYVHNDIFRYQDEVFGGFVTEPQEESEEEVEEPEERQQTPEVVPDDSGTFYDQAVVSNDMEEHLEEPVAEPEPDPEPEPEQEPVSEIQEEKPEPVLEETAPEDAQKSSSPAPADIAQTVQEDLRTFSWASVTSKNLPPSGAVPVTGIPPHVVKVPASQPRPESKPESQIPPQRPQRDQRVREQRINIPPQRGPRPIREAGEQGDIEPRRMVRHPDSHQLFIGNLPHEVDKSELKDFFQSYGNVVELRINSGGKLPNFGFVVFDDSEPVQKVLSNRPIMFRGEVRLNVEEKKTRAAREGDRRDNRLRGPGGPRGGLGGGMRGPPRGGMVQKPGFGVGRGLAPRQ
Technique: RNA Bind-n-Seq
Molecule type: RNA
Medium: in vitro
Tested at: 200 nM
Setting: whole 134-nt RNA, ends assumed
Together with: 150 mM KCl
Reference: input library
Reading: higher = stronger binding
Quantity: log2 enrichment
All sequences stand within: GGGAGUUCUACAGUCCGACGAUC … UGGAAUUCUCGGGUGUCAAGG
Strand = UGGUAGGUGGAUUUUGUUUAUUUUUUUAGCUCAUUUCCAGGGGUGGGAAUUUUUUUUUAAUAUGUGUCAUGAAUAAAGUUGUUUUUGAAA; value = -0.383
Strand = AAGUCCUGUGCUACACAUCGUAUGUACCGAAUCGGAAAAAGGUUUGGAAAAAAAGGAAAGUAUUAUGUUACGCCGUUCGGAUCUGCACUU; value = -1.52
Strand = UGGGAGGUGGAUUUUGUUGAUUUUUUUAGCUCAUUUCCAGGGGUGGGAAUUUUUUUUUAAUAUGUGUCAUGAAUAAAGUUGUUUUUGAAA; value = 0.652
Strand = UGGGAGGUGGAUUUUGUUUAUUUUUUUAGCUCAUUUCCAGGGGUGGGAAUUUUUUUUUAAUAUGUGUCAUGAUUAAAGUUGUUUUUGAAA; value = 0.533
Strand = ACCAUGCAGGUGGGCAUCUUUGGGAAGUGGGGCAAGGGGGGGGUAGGGAGGGGGGUAACACUUUGGGAACAGGUGGUCCCAGGUCGUUUC; value = 1.15
Strand = UCCUCAAGUCCUGUGCUACACAUCGUAUGUACCGAAUCGGAAGGAAGGAAGGAAAGUAUUAUGUUACGCCGUUCGGAUCUGCACUUCCAG; value = -0.192
Strand = UGUCCUGCAGGGUCGGACCGAUACCUGGAGAGCCGCGAUGCCUCUCGACUGAGUGGCCGGGACCCCUCCUCAUGGACAGUCGAGGAUGUG; value = -1.94
Strand = AGUCCUGUGCUACACAUCGUAUGUACCGAAUCGGAAAAAAAGGAAAGGAAAAAAAGGAAAGUAUUAUGUUACGCCGUUCGGAUCUGCACU; value = -1.08
Strand = CCUGUGCUACACAUCGUAUGUACCGAAUCGGUUUUUUGGGGUUUUUUGGGGUUUUUUGGGGAAAGUAUUAUGUUACGCCGUUCGGAUCUG; value = -0.577
Strand = UCAAGUCCUGUGCUACACAUCGUAUGUACCGAAUCGGGGUUGGUUGGGGUUGGGAAAGUAUUAUGUUACGCCGUUCGGAUCUGCACUUCC; value = 0.482
Strand = CCUCAAGUCCUGUGCUACACAUCGUAUGUACCGAAUCGGGGAAGGAAGGAAGGAAAGUAUUAUGUUACGCCGUUCGGAUCUGCACUUCCA; value = -0.211
Strand = AAGUCCUGUGCUACACAUCGUAUGUACCGAAUCGUGUGUGUGUGUGUGUGUGUGUGAAAGUAUUAUGUUACGCCGUUCGGAUCUGCACUU; value = 0.537
Strand = GUCCUGUGCUACACAUCGUAUGUACCGAAUCAAAUUUUUAAAUUUUUAAAUUUUUAAAAAAGUAUUAUGUUACGCCGUUCGGAUCUGCAC; value = -1.48
Strand = CCUCAAGUCCUGUGCUACACAUCGUAUGUACCGAAUCGGGGAGGGAGGGGAGGAAAGUAUUAUGUUACGCCGUUCGGAUCUGCACUUCCA; value = 1.07

Block 3
Target: CCND3, cyclin fold, Cln2 fusion (human)
Technique: yeast growth competition, sequencing
Medium: yeast
Setting: weak parent motif
Reference: not given
Reading: higher = stronger binding
Quantity: normalised enrichment score
Starting sequence: E2F2 docking peptide (human); LPAKRKLDLEGIG; partner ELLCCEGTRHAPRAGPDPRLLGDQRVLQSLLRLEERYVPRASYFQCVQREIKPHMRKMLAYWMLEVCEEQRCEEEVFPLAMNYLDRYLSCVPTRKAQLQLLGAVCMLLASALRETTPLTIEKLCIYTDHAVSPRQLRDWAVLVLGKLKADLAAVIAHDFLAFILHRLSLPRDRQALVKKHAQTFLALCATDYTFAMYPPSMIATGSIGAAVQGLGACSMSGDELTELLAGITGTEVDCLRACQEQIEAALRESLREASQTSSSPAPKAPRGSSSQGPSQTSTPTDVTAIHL
Variant = P2A; value = 0.0647
Variant = K6A; value = 0.0734
Variant = L1A; value = 0.0946
Variant = G11A; value = 0.0352
Variant = R5K L9F; value = 0.465
Variant = R5A; value = 0.162
Variant = R5K; value = 0.168
Variant = R5A L7A; value = 0.201
Variant = G13A; value = 0.142

Block 4
Target: RNA binding protein fox-1 homolog 2, RRM domain, GST-SBP tag (RBFOX2, Homo sapiens, UniProt O43251-10, residues 100-194)
Technique: RNA Bind-n-Seq
Molecule type: RNA
Medium: in vitro
Tested at: 365 nM
Setting: natural RNA segment, single round, ends assumed
Reference: no-protein control
Reading: higher = stronger binding
Quantity: RBNS enrichment (R)
All sequences stand within: GGGAGUUCUACAGUCCGACGAUC … UGGAAUUCUCGGGUGCCAA
Construct (chain): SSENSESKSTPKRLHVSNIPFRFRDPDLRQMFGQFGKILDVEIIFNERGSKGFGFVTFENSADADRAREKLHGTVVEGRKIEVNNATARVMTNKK
Strand = ACUGGCCUCUUUUCAUUUCACUAGUGGCCGAGACACCCUCUCUGGCAUUUAUCACUGUUGGCCGGUGUGAUGAGUAUAGAGUGCCACCCAAGGCACCAGUCACACAAGCU; value = 0.438
Strand = GUGUGGCACCCAGUUUUUCCAUGUAGGUCAUUAUACCUGGAUGAUAACAUCAAUUUAGUUACAAUGCAUGUAGUUUGCACAAUGAUUAAAAUGAAUAGGUUUGUGUUUAU; value = 1.58
Strand = UACUUUGAGUGGAAUGUUCAUUAAUGUAAAUUGUAUUUAUUUUUAUACUUUUAUUUUCACUAGUUUUGCUUCUAGGCAAAAAGCAAAAUAAACUUUUCAUCUUAAAGAAA; value = 0.568
Strand = UGUGGUGAGAUCAUCUGUGUGGAGUUUUAAGAAGCUCUGGAAGAAGGUACUGCCCGCGUUUAAAGGAAGUGCCUUGGCUGGGGCAGCAGUGUCAGCUUGGAUAACUGAAA; value = 0.578
Strand = CCUCCUCUGGGAUACGGCACUUACACAUGGGAAGAAUGGUACGGGGAAGUGUAACACCUCAGAAAGUGACAAGUGACCAGGAUGGAACAUCAACAACAAUAACAACCAUU; value = 0.747
Strand = GACCUGGACCUGGACCUGGACCUACAGCGGGGACUUAAAUGCCUUCUUAUCCAAUAUAUCUUCUCAGAUGGGAUGACUGCGGGUCAGUGUACAGGAAGAGGCAGGCACUG; value = 0.317
Strand = GGAUUAAGCCUUGAGCUUGGCUGGUGCCCAUUGGACCUGGGACCAGGUGUUACCCAGAGAGGUGCCUCUGCUGUGCUUCCUGCCUCCAUCACUUUCCUAGGGCCUCCGUG; value = 0.28
Strand = UCUUCCCUGGGCAUGACUGAUGACAAUUUCCAUUUCAUCAGUUUGUUUUGUUUUCCUUUUUCUUUAAAUCUUGGACUUUAAACCCUACCUGUGUGAUUCAGUAGGGUUUG; value = 0.664
Strand = CUGUGGUGGAAGAGGGCACGACAGUGCCAGCGCAGCGUUCUGGGCUCCUCAGUCGCAGGGGUGGGAUGUGAGUCAUGCGGAUUAUCCACUCGCCACAGUUAUCAGCUGCC; value = 0.508
Strand = CUCUUGGUCCUCAUAAUGGGCAAAGGAUACAACGAAGGCAGGUUGUAUAGGGGUUAUAGUGGGGAAGUGGAUAGGGGAUUCAUUUUCUUAUGUGACAUUUUGCCUUAAGA; value = 1.23
Strand = UGUGCUGUGGAAUGUGAUGCUUGUCCUCAUAUAGUCUCAGUUUCUCUUUUUAUGCAGAUAUUUGUGACCUUCAUCUUGCACAUACAACCAAAUUAUUUUAAGGUGCAUAG; value = 0.391
Strand = CGUAUUCCGUUUUCUUCCUGCAUGAUCCCUGGGCCCUCCCGCAGGCUGAGCAAGUCUGUAAACUGAUUCUGGGAGAAACCAAGCUGCUGGCCAUAGGGUGUCCUUGGGUA; value = 2.45
